Results gathered from unrelated publications.
Protocols differ between the studies behind these lines. Numbers after ± are the reported error.

CCCCC1(CCCC)CN(c2ccccc2)c2cc(SC)c(OCC(=O)N[C@@H](C(=O)NCC(=O)O)c3ccccc3)cc2S(=O)(=O)C1 has a Cmax of 0.583 ng/mL (LC-MS/MS; human, plasma; oral, 5 mg, single dose, fasted).
With N#Cc1ccnc(N2C(=O)CC[C@H]2C(=O)N(c2cncc(F)c2)[C@H](C(=O)NC2CC(F)(F)C2)c2ccccc2Cl)c1 the Cmax was 5000 ng/mL (human patients, plasma; oral, 500 mg once daily, induction cycle 1 day 1, mean, with: chemotherapy).
With CO[C@H]1C[C@@H]2CC[C@@H](C)[C@@](O)(O2)C(=O)C(=O)N2CCCC[C@H]2C(=O)O[C@H]([C@H](C)C[C@@H]2CC[C@@H](OC(=O)C(C)(CO)CO)[C@H](OC)C2)CC(=O)[C@H](C)/C=C(\C)[C@@H](O)[C@@H](OC)C(=O)[C@H](C)C[C@H](C)/C=C/C=C/C=C/1C the Cmax was 790 ng/mL (human, whole blood; intravenous, 35 mg/m^2 weekly, cycle 1, median, with: valproic acid).
With NCCCS(=O)(=O)O the Cmax was 506 ± 187 ng/mL (human, plasma; oral, 100 mg modified-release tablet, single dose).
With COc1cc(C(=O)O)ccc1NC(=O)[C@@H]1N[C@@H](CC(C)(C)C)[C@](C#N)(c2ccc(Cl)cc2F)[C@H]1c1cccc(Cl)c1F the Cmax was 3760 ng/mL (human, plasma; oral, 150 mg, steady state cohort B1.2, with: venetoclax 600 mg).
O=C(c1ccc(OCCN2CCCCC2)cc1)c1c(-c2ccc(O[C@@H]3O[C@H](C(=O)O)[C@@H](O)[C@H](O)[C@H]3O)cc2)sc2cc(O)ccc12 gave a Cmax of 57.9 nM (human, plasma; oral, 60 mg raloxifene, acute green tea).
For CNCc1ccc(-c2[nH]c3cc(F)cc4c3c2CCNC4=O)cc1, the Cmax was 134 ng/mL (human cancer patients, plasma; intravenous, 4 mg/m2, day 1, with: temozolomide 100).
CNC(=O)c1c(C)oc2cc(Oc3ncnc4cc(OC)c(OC)cc34)ccc12 has a Cmax of 121 ng/mL (human, plasma; oral, 5 mg, fasted, with: rabeprazole 40 mg).
C=CC(=O)Nc1cc(Nc2ncc(C(=O)OC(C)C)c(-c3cn(C)c4ccccc34)n2)c(OC)cc1N(C)CCN(C)C has a Cmax of 75.3 ng/mL (human, plasma; oral, 160 mg, geometric mean, alone).
The Cmax of CCCNS(=O)(=O)Nc1ncnc(OCCOc2ncc(Br)cn2)c1-c1ccc(Br)cc1 is reported as 194 ng/mL (human; oral, 10 mg, fixed-dose combination, fasted, geometric mean, with: tadalafil 40 mg).
The Cmax of COc1ccnc(C[S+]([O-])c2nc3ccc(OC(F)F)cc3[nH]2)c1OC (stereo not drawn) is reported as 9320 ng/mL (human, CYP2C19 rapid metabolizers, plasma; oral, 40 mg/day, day 1).
CS(=O)(=O)n1cc2c(n1)CN([C@H]1CO[C@H](c3cc(F)ccc3F)[C@@H](N)C1)C2 has a Cmax of 2320 nM (healthy male human, plasma; oral, 100 mg once weekly, day 1, fasted, geometric mean).
The Cmax of Cc1nc(-c2ccc(OCC(C)C)c(C#N)c2)sc1C(=O)O is reported as 688 ng/mL (human, plasma; oral, 40 mg, with: verinurad 20 mg).
CN[C@@H]1COc2c(S(=O)(=O)NC(=O)Nc3c4c(cc5c3CCC5)CCC4)cnn2C1 has a Cmax of 24100 ng/mL (human; oral, 600 mg, high-fat meal, mean).
Cc1cccc(C)c1OCC(=O)N[C@@H](Cc1ccccc1)[C@@H](O)C[C@H](Cc1ccccc1)NC(=O)[C@H](C(C)C)N1CCCNC1=O has a Cmax of 10200 ng/mL (human, HIV+/HCV+ with cirrhosis, plasma; oral, dose not given, total drug, steady state, median, with: lopinavir/ritonavir twice daily).
With CC[C@@]1(O)C(=O)OCc2c1cc1n(c2=O)Cc2cc3c(CN(C)C)c(O)ccc3nc2-1 the Cmax was 9.29 ng/mL (human patients, plasma; oral, 4 mg, day 1, geometric mean, alone).
The Cmax of CCOc1ccc(Cc2cc([C@@H]3S[C@H](CO)[C@@H](O)[C@H](O)[C@H]3O)c(OC)cc2C)cc1 is reported as 409 ± 84.3 ng/mL (human, plasma; oral, 10 mg/day, day 1, multiple dose before breakfast).
With C=CC(=O)N1CCC([C@@H]2CCNc3c(C(N)=O)c(-c4ccc(Oc5ccccc5)cc4)nn32)CC1 the Cmax was 216 ng/mL (human; oral, 160 mg, single dose, mean).

Some of these lines once more:
The Cmax of COc1ccnc(C[S+]([O-])c2nc3ccc(OC(F)F)cc3[nH]2)c1OC (stereo not drawn) is reported as 9320 ng/mL (human, CYP2C19 rapid metabolizers, plasma; oral, 40 mg/day, day 1).
